Experimental data gathered from unrelated publications.
Lines come from different studies, so protocols differ.

CN[C@@H]1[C@H](O)[C@H](NC)[C@H]2O[C@]3(O)[C@H](O[C@@H]2[C@H]1O)O[C@H](C)C[C@@]3(O)CNCCC1CCOCC1
MIC (Mycobacteroides abscessus; ATCC 19977 ∆tap; 120 h): 32 µg/mL

CN(C)CCCNCCCNC(=O)[C@@H]1NC(=O)[C@@H]2Cc3ccc(cc3)Oc3cc4cc(c3O)-c3ccc5c(c[nH]c5c3)C[C@@H](NC(=O)C(N)c3ccc(O)cc3)C(=O)N[C@H](c3ccc(O)cc3)C(=O)N[C@H]4C(=O)N[C@@H](C(=O)N2C)c2ccc(cc2)Oc2cc1ccc2O (stereo partly drawn)
MIC (Enterococcus faecium; brain heart infusion medium): 2 to 4 µg/mL

CCCCCCCCCCCCCC(=O)N[C@H](CCN)C(=O)N[C@H](C(=O)N[C@H]1CCNC(=O)[C@H](CC(=O)O)NC(=O)[C@H](C(C)C)NC(=O)[C@@H](Cc2ccc(O)cc2)NC(=O)[C@H](CCN)NC(=O)[C@H](CC(C)C)NC(=O)[C@@H](Cc2ccccc2)NC(=O)[C@H](CCN)NC(=O)[C@H](CC(C)C)NC1=O)[C@@H](C)O
MIC (Enterobacter cloacae; broth microdilution; BNCC 185028): 64 µg/mL

CO[C@H]1/C=C/O[C@@]2(C)Oc3c(C)c(O)c4c(c3C2=O)C2=NC3(CCN(CC(C)C)CC3)NC2=C(NC(=O)/C(C)=C\C=C\[C@H](C)[C@H](O)[C@@H](C)[C@@H](O)[C@@H](C)[C@H](OC(=O)c2ccccc2Cl)[C@@H]1C)C4=O
MIC (Mycobacteroides abscessus; ATCC 19977 arr deletion; 90% growth inhibition): 0.049 µM

CCCCCCCCCCCCCCCCSCC1OC(OC2C(N)CC(N)C(OC3OC(CN)C(O)CC3N)C2O)C(O)C(N)C1O (stereo not drawn)
MIC (Shigella; clinical isolate): 37.5 µg/mL

CC[C@@H](C)[C@@H](NC(=O)[C@@H](C)NC(=O)[C@@H](CCCCN)NC(=O)[C@@H](CC(C)C)NC(=O)[C@@H](C)NC(=O)[C@H](NC(=O)[C@@H](Cc1c[nH]cn1)NC(=O)[C@@H](CC(C)C)NC(=O)[C@H](NC(=O)[C@H](NC(=O)[C@@H](CCCCN)NC(=O)[C@@H](CCCCN)NC(=O)[C@@H](C)NC(=O)[C@@H](CO)NC(=O)[C@@H](CCCCN)NC(=O)[C@@H](Cc1ccccc1)NC(=O)[C@H](NC(=O)[C@@H](CCCCN)NC(=O)[C@@H](CC(C)C)NC(=O)[C@@H](Cc1ccccc1)NC(=O)[C@@H](CO)NC(=O)[C@@H](CCCCN)NC(=O)[C@@H](Cc1c[nH]c2ccccc12)NC(=O)[C@@H](CCCCN)NC(C)=O)[C@H](C)O)[C@H](C)O)C(C)C)[C@H](C)O)C(=O)N[C@H](CO)C(=O)N[C@H](CO)C(N)=O
MIC (Acinetobacter baumannii; 964, Mueller-Hinton broth; 24 h, 37 °C): 1.5 µM

[O-][N+]1=C(c2ccccc2)C2=NCCN2c2ccccc21
MIC (Porphyromonas sp.): ≤ 0.06 µg/mL

CO[C@H]1/C=C/O[C@@]2(C)Oc3c(C)c(O)c4c(c3C2=O)C2=NC3(CCN(CC(C)C)CC3)NC2=C(NC(=O)/C(C)=C\C=C\[C@H](C)[C@H](O)[C@@H](C)[C@@H](O)[C@@H](C)[C@H](OC(=O)c2cccnc2)[C@@H]1C)C4=O
MIC (Mycobacteroides abscessus; ATCC 19977 arr deletion; 90% growth inhibition): 0.026 µM

CN(C)CCCNC(=O)[C@@H]1NC(=O)[C@@H]2Cc3ccc(cc3)Oc3cc4cc(c3O)-c3ccc5c(c[nH]c5c3)C[C@@H](NC(=O)C(NC(=O)CCCCCN)c3ccc(O)cc3)C(=O)N[C@H](c3ccc(O)cc3)C(=O)N[C@H]4C(=O)N[C@@H](C(=O)N2C)c2ccc(cc2)Oc2cc1ccc2O (stereo partly drawn)
MIC (Enterococcus faecium; WCC 0586, VRE-A): 1 to 2 µg/mL

CN[C@@H]1[C@H](O)[C@H](NC)[C@H]2O[C@]3(O)[C@H](O[C@@H]2[C@H]1O)O[C@H](C)C[C@@]3(O)CNCc1ccc(F)cc1
MIC (Mycobacteroides abscessus; ATCC 19977 ∆whiB7; 120 h): 16 to 32 µg/mL

CN[C@@H]1[C@H](O)[C@H](NC)[C@H]2O[C@]3(O)[C@H](O[C@@H]2[C@H]1O)O[C@H](C)C[C@@]3(O)CNCc1ccc(F)cc1
MIC (Streptococcus pyogenes; ATCC 700294): 1.6 µg/mL

COc1ccc(C2=[N+]([O-])c3ccccc3N3CC(C)(C)CN=C23)cc1
MIC (Parvimonas micra; ATCC 3870): ≤ 0.06 µg/mL

CC[C@H](C)[C@H](NC(=O)[C@@H](NC(=O)CN)C(C)C)C(=O)N[C@@H](Cc1ccccc1)C(=O)N[C@@H](CC(N)=O)C(=O)N[C@@H](C)C(=O)N[C@@H](CC(C)C)C(=O)N[C@@H](CCCCN)C(=O)NCC(=O)N[C@H](C(=O)N[C@@H](C)C(=O)N[C@@H](CCCCN)C(=O)N[C@H](C(=O)N[C@H](C(=O)N[C@@H](C)C(=O)N[C@@H](C)C(=O)N[C@@H](CCC(N)=O)C(=O)N[C@@H](CC(C)C)C(=O)N[C@@H](CC(C)C)C(=O)N[C@@H](CCCCN)C(=O)N[C@@H](CCCCN)C(=O)N[C@@H](C)C(=O)N[C@@H](CCCNC(=N)N)C(=O)N[C@H]1CSSC[C@@H](C(=O)O)NC(=O)[C@H](CO)NC(=O)[C@H](CCCCN)NC(=O)[C@H](CC(=O)O)NC(=O)[C@H](CC(C)C)NC(=O)[C@H](CCCCN)NC1=O)C(C)C)[C@@H](C)O)C(C)C
MIC (Staphylococcus aureus; MRSA NCTC 12493, Mueller-Hinton broth; together with: ZnCl2 8 mM): 2 µM

COC1C=COC2(C)Oc3c(C)c(O)c4c(c3C2=O)C2=NC3(CCN(CC(C)C)CC3)NC2=C(NC(=O)C(C)=CC=CC(C)C(O)C(C)C(O)C(C)C(OC(=O)c2cncnc2)C1C)C4=O (stereo not drawn)
MIC (Mycobacteroides abscessus; ATCC 19977 arr knockout): 0.033 µM

c1ccc(CCNC2CCCc3c2[nH]c2ccc(C4CCCCC4)cc32)cc1 (stereo not drawn)
MIC (Streptococcus pyogenes; broth microdilution; serotype M1T1, THY medium): 1 µg/mL

[O-][N+]1=C(c2ccc(Cl)cc2)C2=NCCCCN2c2ccccc21
MIC (Parvimonas micra; ATCC 3870): 0.25 µg/mL

CC[C@H](C)[C@H](NC(=O)[C@H](CO)NC(=O)[C@H](CO)NC(=O)[C@H](Cc1ccccc1)NC(=O)CN)C(=O)N[C@@H](Cc1ccccc1)C(=O)N[C@@H](CCCNC(=N)N)C(=O)NCC(=O)N[C@H](C(=O)N[C@@H](C)C(=O)N[C@@H](CCCCN)C(N)=O)C(C)C
MIC (Escherichia coli; ATCC 8739; together with: 0.5 mM KCl): > 128 µM

O=[N+]([O-])c1ccc(C2=[N+]([O-])c3ccccc3N3CCCN=C23)cc1
MIC (Porphyromonas sp.): ≤ 0.06 µg/mL

CN1C(=O)[C@@H]2NC(=O)[C@@H]3NC(=O)[C@@H](c4ccc(O)cc4)NC(=O)[C@H](NC(=O)C(NCc4ccc(B(O)O)cc4)c4ccc(O)cc4)Cc4c[nH]c5cc(ccc45)-c4cc3cc(c4O)Oc3ccc(cc3)C[C@H]1C(=O)N[C@@H](C(=O)O)c1ccc(O)c(c1)Oc1ccc2cc1 (stereo partly drawn)
MIC (Enterococcus faecium; brain heart infusion medium): 8 µg/mL

CN[C@@H]1[C@H](O)[C@H](NC)[C@H]2O[C@]3(O)[C@H](O[C@@H]2[C@H]1O)O[C@H](C)C[C@@]3(O)CNCCc1ccc(F)cc1
MIC (Mycobacteroides abscessus; ATCC 19977 ∆whiB7 ∆tap; 120 h): 2 µg/mL

CC[C@H](C)[C@H](NC(=O)[C@H](CCCNC(=N)N)NC(=O)CNC(=O)[C@H](CC(C)C)NC(=O)[C@H](CC(C)C)NC(=O)[C@H](CCCCN)NC(=O)[C@H](Cc1ccccc1)NC(=O)[C@H](C)N)C(=O)N[C@H](C(=O)N[C@@H](Cc1c[nH]cn1)C(=O)N[C@@H](Cc1c[nH]cn1)C(=O)N[C@H](C(=O)NCC(=O)N[C@@H](CC(N)=O)C(=O)N[C@@H](Cc1ccccc1)C(=O)N[C@H](C(=O)N[C@@H](Cc1ccc(O)c(O)c1)C(=O)NCC(=O)N[C@@H](Cc1ccccc1)C(=O)N[C@@H](CO)C(=O)N[C@@H](Cc1c[nH]cn1)C(=O)N[C@H](C(=O)N[C@@H](Cc1ccccc1)C(N)=O)C(C)C)C(C)C)C(C)C)[C@@H](C)CC
MIC (Enterobacter cloacae; broth microdilution; AR 0136; pH 7.4): > 128 µM

CCCCc1ccc(-c2nc(C)c(C(C)=NNC(=N)N)s2)cc1
MIC (Staphylococcus aureus; VRS4 VRSA): 0.7 µg/mL

CO[C@H]1/C=C/O[C@@]2(C)Oc3c(C)c(O)c4c(c3C2=O)C2=NC3(CCN(CC(C)C)CC3)NC2=C(NC(=O)/C(C)=C\C=C\[C@H](C)[C@H](O)[C@@H](C)[C@@H](O)[C@@H](C)[C@H](OC(=O)c2cccc(F)c2)[C@@H]1C)C4=O
MIC (Mycobacteroides abscessus; ATCC 19977 arr deletion; 90% growth inhibition): 0.09 µM

C[N+]1=C2C(c3ccc(Cl)cc3)=[N+]([O-])c3ccccc3N2CCC1
MIC (Parvimonas micra; ATCC 3870): 1 µg/mL

CCCCCCCCCCCCCCCCCCCCCCSCC1OC(OC2C(N)CC(N)C(OC3OC(CN)C(O)CC3N)C2O)C(O)C(N)C1O (stereo not drawn)
MIC (Shigella; clinical isolate): > 150 µg/mL

CN1C(=O)[C@@H]2NC(=O)[C@@H]3NC(=O)[C@@H](c4ccc(O)cc4)NC(=O)[C@H](NC(=O)C(N)c4ccc(O)cc4)Cc4c[nH]c5cc(ccc45)-c4cc3cc(c4O)Oc3ccc(cc3)C[C@H]1C(=O)N[C@@H](C(=O)O)c1ccc(O)c(c1)Oc1ccc2cc1 (stereo partly drawn)
MIC (Enterococcus faecium; WCC 0502, VRE-A): 4 to 8 µg/mL

CN[C@@H]1[C@H](O)[C@H](NC)[C@H]2O[C@]3(O)[C@H](O[C@@H]2[C@H]1O)O[C@H](C)C[C@@]3(O)CNCc1ccc(OC(F)(F)F)cc1
MIC (Streptococcus pyogenes; ATCC 700294): 1.6 µg/mL

Excerpt of the above:
[O-][N+]1=C(c2ccc(Cl)cc2)C2=NCCCCN2c2ccccc21
MIC (Parvimonas micra; ATCC 3870): 0.25 µg/mL

c1ccc(CCNC2CCCc3c2[nH]c2ccc(C4CCCCC4)cc32)cc1 (stereo not drawn)
MIC (Streptococcus pyogenes; broth microdilution; serotype M1T1, THY medium): 1 µg/mL

C[N+]1=C2C(c3ccc(Cl)cc3)=[N+]([O-])c3ccccc3N2CCC1
MIC (Parvimonas micra; ATCC 3870): 1 µg/mL

CO[C@H]1/C=C/O[C@@]2(C)Oc3c(C)c(O)c4c(c3C2=O)C2=NC3(CCN(CC(C)C)CC3)NC2=C(NC(=O)/C(C)=C\C=C\[C@H](C)[C@H](O)[C@@H](C)[C@@H](O)[C@@H](C)[C@H](OC(=O)c2cccnc2)[C@@H]1C)C4=O
MIC (Mycobacteroides abscessus; ATCC 19977 arr deletion; 90% growth inhibition): 0.026 µM
